Assay results gathered from unrelated publications.
Parts stem from different laboratories: compare values within a part only.
Chain of UniProt Q92772 (whole entry, looked up): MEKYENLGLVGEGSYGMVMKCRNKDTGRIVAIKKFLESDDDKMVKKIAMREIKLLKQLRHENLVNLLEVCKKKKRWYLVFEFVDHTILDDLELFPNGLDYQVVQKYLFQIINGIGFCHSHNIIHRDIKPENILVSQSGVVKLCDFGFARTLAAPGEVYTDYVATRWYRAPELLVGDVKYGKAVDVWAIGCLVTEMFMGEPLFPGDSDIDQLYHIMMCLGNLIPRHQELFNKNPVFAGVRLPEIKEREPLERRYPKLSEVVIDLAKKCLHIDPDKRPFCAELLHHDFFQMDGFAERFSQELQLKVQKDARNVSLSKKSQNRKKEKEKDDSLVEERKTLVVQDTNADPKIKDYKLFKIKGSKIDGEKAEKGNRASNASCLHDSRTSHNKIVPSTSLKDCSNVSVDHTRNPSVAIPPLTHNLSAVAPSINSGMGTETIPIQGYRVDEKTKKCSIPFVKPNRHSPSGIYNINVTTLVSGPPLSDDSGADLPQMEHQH
Chain of UniProt P10721 (whole entry, unmodified, looked up): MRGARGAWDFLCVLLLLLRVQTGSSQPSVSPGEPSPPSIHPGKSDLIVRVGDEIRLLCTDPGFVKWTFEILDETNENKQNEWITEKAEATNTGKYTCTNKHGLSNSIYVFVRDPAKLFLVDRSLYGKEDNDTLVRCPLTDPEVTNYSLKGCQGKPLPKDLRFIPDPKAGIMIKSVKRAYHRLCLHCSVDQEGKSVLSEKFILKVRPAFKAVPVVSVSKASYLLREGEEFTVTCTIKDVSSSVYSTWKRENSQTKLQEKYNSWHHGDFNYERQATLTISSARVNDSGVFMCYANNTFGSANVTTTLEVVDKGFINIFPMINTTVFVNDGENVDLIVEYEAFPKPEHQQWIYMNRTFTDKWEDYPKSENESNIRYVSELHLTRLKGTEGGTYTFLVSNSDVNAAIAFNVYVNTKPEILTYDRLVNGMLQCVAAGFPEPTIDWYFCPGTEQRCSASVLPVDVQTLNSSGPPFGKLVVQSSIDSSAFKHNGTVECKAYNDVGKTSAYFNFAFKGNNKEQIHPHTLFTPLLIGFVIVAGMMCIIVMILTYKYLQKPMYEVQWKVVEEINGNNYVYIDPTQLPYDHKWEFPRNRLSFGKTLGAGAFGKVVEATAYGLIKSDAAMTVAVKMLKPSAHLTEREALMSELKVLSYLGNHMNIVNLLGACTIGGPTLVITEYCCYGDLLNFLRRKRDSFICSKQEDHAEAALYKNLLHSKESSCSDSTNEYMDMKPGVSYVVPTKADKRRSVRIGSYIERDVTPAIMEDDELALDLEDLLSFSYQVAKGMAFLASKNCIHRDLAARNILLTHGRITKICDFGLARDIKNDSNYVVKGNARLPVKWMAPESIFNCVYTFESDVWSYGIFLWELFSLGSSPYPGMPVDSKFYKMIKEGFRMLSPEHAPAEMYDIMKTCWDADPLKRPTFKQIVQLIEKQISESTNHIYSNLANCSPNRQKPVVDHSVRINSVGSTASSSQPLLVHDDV
Chain of UniProt Q13882 (whole entry, looked up): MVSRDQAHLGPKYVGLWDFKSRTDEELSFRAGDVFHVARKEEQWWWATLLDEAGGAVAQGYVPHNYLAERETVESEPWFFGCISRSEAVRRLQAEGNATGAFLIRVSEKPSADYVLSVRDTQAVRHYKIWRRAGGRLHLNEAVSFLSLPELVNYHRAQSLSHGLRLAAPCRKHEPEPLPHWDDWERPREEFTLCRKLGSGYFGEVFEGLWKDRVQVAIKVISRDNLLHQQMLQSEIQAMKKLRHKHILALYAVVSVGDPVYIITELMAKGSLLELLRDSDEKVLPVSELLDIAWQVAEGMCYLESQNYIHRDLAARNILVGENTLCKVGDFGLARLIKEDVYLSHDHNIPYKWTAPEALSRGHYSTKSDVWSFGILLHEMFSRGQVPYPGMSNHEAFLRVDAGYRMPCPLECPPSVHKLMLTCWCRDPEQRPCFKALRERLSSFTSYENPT
Chain of UniProt Q14289 (whole entry, looked up): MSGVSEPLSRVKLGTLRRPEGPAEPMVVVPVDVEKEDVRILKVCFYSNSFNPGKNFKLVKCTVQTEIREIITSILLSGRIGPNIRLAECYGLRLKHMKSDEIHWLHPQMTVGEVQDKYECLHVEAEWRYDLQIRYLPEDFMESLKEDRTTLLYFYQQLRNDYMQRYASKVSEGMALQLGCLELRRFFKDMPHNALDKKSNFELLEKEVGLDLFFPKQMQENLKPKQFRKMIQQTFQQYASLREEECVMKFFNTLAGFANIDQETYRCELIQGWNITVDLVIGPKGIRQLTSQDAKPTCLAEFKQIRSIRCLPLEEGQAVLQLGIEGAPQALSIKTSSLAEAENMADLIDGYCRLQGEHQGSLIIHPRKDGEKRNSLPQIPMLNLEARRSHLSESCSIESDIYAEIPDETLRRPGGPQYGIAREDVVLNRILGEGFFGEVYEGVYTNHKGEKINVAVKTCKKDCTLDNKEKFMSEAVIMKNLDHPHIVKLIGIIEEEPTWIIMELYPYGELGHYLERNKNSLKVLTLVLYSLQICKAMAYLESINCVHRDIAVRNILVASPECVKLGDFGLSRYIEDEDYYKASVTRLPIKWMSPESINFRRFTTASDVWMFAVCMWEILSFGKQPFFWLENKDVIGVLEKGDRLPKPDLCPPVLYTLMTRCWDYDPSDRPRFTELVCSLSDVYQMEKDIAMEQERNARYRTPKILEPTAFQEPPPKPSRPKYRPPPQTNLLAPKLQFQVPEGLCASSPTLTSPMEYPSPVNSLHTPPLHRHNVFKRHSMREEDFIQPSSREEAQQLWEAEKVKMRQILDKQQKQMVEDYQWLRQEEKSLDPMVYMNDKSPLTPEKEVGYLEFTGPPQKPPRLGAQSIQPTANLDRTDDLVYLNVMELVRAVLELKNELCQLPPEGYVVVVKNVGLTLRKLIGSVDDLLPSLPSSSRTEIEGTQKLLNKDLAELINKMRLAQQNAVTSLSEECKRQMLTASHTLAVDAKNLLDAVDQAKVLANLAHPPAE
Chain of UniProt P22607 (whole entry, unmodified, looked up): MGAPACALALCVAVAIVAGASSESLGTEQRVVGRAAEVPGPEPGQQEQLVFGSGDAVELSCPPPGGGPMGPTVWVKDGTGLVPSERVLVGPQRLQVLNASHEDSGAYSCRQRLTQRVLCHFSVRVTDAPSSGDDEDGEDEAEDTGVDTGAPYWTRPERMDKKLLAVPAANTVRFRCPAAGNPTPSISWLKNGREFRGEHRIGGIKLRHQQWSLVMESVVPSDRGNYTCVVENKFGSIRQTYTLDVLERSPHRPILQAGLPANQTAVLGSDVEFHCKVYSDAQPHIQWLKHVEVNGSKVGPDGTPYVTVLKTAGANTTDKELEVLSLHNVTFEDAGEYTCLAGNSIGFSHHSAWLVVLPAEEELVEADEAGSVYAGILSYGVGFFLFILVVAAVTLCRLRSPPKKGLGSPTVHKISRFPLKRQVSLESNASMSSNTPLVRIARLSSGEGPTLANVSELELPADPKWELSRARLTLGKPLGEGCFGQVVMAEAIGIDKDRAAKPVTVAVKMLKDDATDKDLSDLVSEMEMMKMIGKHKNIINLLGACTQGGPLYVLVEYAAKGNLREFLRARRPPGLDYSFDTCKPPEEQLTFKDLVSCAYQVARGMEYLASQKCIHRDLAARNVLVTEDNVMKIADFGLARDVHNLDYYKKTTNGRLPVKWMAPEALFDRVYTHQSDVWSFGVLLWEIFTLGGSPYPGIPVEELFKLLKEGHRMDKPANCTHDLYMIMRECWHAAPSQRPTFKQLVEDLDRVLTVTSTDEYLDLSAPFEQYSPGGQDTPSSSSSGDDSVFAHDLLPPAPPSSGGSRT
Chain of UniProt Q8IU85 (whole entry, looked up): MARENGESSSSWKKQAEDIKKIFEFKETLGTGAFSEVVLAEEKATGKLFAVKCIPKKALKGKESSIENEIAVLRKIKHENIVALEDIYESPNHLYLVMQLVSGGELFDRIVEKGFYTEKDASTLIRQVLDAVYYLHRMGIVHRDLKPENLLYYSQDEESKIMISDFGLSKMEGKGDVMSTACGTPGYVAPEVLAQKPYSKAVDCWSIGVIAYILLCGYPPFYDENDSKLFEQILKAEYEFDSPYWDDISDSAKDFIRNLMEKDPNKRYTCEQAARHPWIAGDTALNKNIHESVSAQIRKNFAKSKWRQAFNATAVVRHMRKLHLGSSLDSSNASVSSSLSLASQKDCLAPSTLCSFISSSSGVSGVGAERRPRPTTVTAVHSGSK

Series 1 — read-out: enzyme activity; mode: inhibitor; tested at: 0.5 µM; reference: control
Target: G protein-coupled receptor kinase 3 (GRK3, Homo sapiens, UniProt P35626)
Chain of UniProt P35626 (whole entry, looked up): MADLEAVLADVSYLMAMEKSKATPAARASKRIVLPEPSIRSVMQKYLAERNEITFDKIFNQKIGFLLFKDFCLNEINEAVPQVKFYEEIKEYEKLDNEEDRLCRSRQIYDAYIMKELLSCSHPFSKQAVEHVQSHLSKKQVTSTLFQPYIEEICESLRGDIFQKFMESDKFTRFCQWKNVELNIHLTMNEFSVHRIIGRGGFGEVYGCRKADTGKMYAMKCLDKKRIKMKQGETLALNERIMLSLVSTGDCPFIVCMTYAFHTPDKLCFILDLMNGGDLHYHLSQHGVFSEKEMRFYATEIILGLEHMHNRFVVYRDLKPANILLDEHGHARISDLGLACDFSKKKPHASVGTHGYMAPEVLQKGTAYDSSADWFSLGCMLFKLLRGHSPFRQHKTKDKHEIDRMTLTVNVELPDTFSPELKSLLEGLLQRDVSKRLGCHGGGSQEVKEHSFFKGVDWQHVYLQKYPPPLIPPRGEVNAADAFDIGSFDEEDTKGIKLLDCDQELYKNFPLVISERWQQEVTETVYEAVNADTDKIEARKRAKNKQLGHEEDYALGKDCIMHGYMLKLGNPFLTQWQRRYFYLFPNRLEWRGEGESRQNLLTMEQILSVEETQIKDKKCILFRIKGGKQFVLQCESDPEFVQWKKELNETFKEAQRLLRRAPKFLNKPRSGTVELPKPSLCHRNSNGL
With `OCC(O)CCON=C1C(c2c(O)[nH]c3ccccc23)=Nc2ccccc21` (stereo not drawn) the remaining activity was 100%.
With `Nc1ncnc2n[nH]c(Nc3ccc(F)cc3)c12` the remaining activity was 102%.
With `COc1cc2ncnc(Nc3ccc(F)c(Cl)c3)c2cc1OCCCN1CCOCC1` the remaining activity was 97.9%.
With `Cc1ccc(Nc2nccc(N(C)c3ccc4c(C)n(C)nc4c3)n2)cc1S(N)(=O)=O` the remaining activity was 99.3%.
`Cc1cccc(-c2[nH]c(C(C)(C)C)nc2-c2ccc3c(c2)OCO3)n1` has a remaining activity of 96.3%.
`COc1cc2ncnc(Nc3ccc(Oc4ccccc4)cc3)c2cc1OC` has a remaining activity of 91.8%.
`COc1ccc(C(=O)Nc2sc3c(c2C(N)=O)CCCC3)cc1OC` has a remaining activity of 103%.
`Cc1nc(-c2ccccc2)c(-c2ccncc2)o1` has a remaining activity of 101%.
For `COc1ccc(OC)c2c(=S)c3ccccc3[nH]c12`, the remaining activity was 86.5%.
`N#CC(C#N)=C(N)/C(C#N)=C/c1ccc(O)cc1` gave a remaining activity of 96.7%.
The remaining activity of `O=C(O)c1ccc2c3c1cccc3c(=O)n1c3ccccc3nc21` is reported as 103%.
With `O=S(=O)(c1cccc2cnccc12)N1CCCNCC1` the remaining activity was 100%.
`Cc1ccc(NC(=O)c2ccc(CN3CCN(C)CC3)cc2)cc1Nc1nc(-c2cccnc2)cs1` has a remaining activity of 100%.
`COc1cc2nccc(Oc3ccc(NC(=S)NC(=O)c4ccccc4C)cc3)c2cc1OC` has a remaining activity of 94.9%.
The remaining activity of `Oc1ccc(-c2nc(-c3ccncc3)c(-c3ccc(F)cc3)[nH]2)cc1` is reported as 99.3%.
`CN(C)c1ccc(C=C2C(=O)Nc3ccccc32)cc1` has a remaining activity of 98.9%.

Series 2 — tested at: 1 µM
Compound: COc1ccc2[nH]c3c4[nH]c5ccc(OC)cc5c4c4c(c3c2c1)C(=O)NC4=O
It gave 100% for remaining binding (FGFR3 (Homo sapiens, UniProt P22607, G697C); competitive binding panel; reference: vehicle).
It gave 98% for remaining binding (CAMK4 (Homo sapiens, UniProt Q16566); competitive binding panel; reference: vehicle).
It gave 88% for remaining binding (PIK3CB (Homo sapiens, UniProt P42338); competitive binding panel; reference: vehicle).
MYLK3 (Homo sapiens, UniProt Q32MK0); competitive binding; MLCK — remaining binding: 16%.
It gave 84% for remaining binding (PIK3CA (Homo sapiens, UniProt P42336, E545K); competitive binding panel; reference: vehicle).
It gave 64% for remaining binding (CAMK1D (Homo sapiens, UniProt Q8IU85); competitive binding panel; reference: vehicle).
For JAK2 (Homo sapiens, UniProt O60674); competitive binding panel; JH1 catalytic domain; reference: vehicle: remaining binding read 84%.
The remaining binding was 87% (NEK6 (Homo sapiens, UniProt Q9HC98); competitive binding panel; reference: vehicle).
It gave 54% for remaining binding (PRKAA2 (Homo sapiens, UniProt P54646); competitive binding; AMPK-alpha2).

Series 3 — tested at: 1 µM
SMILES: C=CC(=O)N1CCC([C@@H]2CCNc3c(C(N)=O)c(-c4ccc(Oc5ccccc5)cc4)nn32)CC1
For PTK2B (Homo sapiens, UniProt Q14289); enzyme activity, inhibitor: inhibition read 13%.
It gave 63% for inhibition (YES1 (Homo sapiens, UniProt P07947); enzyme activity, inhibitor).
For CDK17 (Homo sapiens, UniProt Q00537); enzyme activity, inhibitor: inhibition read 3%.
RIOK1 (Homo sapiens, UniProt Q9BRS2); enzyme activity, inhibitor — inhibition: 44%.
The inhibition was 0% (BMPR2 (Homo sapiens, UniProt Q13873); cell-free assay).
PTK6 (Homo sapiens, UniProt Q13882); enzyme activity, inhibitor — inhibition: 95%.
For CDKL2 (Homo sapiens, UniProt Q92772); enzyme activity: inhibition read 30%.
PAK6 (Homo sapiens, UniProt Q9NQU5); enzyme activity, inhibitor — inhibition: 14%.
The inhibition was 0% (KIT (Homo sapiens, UniProt P10721, A829P); enzyme activity, inhibitor).

Series 4 — read-out: cell-free assay; method: competition with immobilised ligand; tested at: 1 µM
SMILES: O=C(NCc1ncc(C(F)(F)F)cc1Cl)c1ccc2c(c1)C1(CCS(=O)(=O)CC1)[C@H](C1CC1)N2S(=O)(=O)c1ccc(F)cc1
MAP2K5 (Homo sapiens, UniProt Q13163) — remaining binding: 69%.
For CDKL2 (Homo sapiens, UniProt Q92772): remaining binding read 100%.
For Ribosomal protein S6 kinase alpha-3, N-terminal kinase domain (RPS6KA3, Homo sapiens, UniProt P51812): remaining binding read 70%.
KIT (Homo sapiens, UniProt P10721, V559D/V654A) — remaining binding: 100%.
For CDK7 (Homo sapiens, UniProt P50613): remaining binding read 64%.
It gave 100% for remaining binding (STK26 (Homo sapiens, UniProt Q9P289)).
EGFR (Homo sapiens, UniProt P00533, L861Q) — remaining binding: 84%.
The remaining binding was 80% (Tyrosine-protein kinase ABL1, phosphorylated (ABL1, Homo sapiens, UniProt P00519, H396P)).
PTK6 (Homo sapiens, UniProt Q13882) — remaining binding: 100%.
For FGFR1 (Homo sapiens, UniProt P11362): remaining binding read 49%.
MAP3K9 (Homo sapiens, UniProt P80192) — remaining binding: 100%.

Some of these lines once more (series 4):
For Ribosomal protein S6 kinase alpha-3, N-terminal kinase domain (RPS6KA3, Homo sapiens, UniProt P51812): remaining binding read 70%.
KIT (Homo sapiens, UniProt P10721, V559D/V654A) — remaining binding: 100%.
For CDK7 (Homo sapiens, UniProt P50613): remaining binding read 64%.
It gave 100% for remaining binding (STK26 (Homo sapiens, UniProt Q9P289)).
EGFR (Homo sapiens, UniProt P00533, L861Q) — remaining binding: 84%.
The remaining binding was 80% (Tyrosine-protein kinase ABL1, phosphorylated (ABL1, Homo sapiens, UniProt P00519, H396P)).
